Published values from different studies.
Each numbered part is a random draw from the data of one study; scales do not carry over between parts. Changes are numbered by the printed parent chain.

Sample 1
Target: Sal-like protein 4, full length isoform B (SALL4, Homo sapiens, UniProt Q9UJQ4-2, residues 1-616)
Method: universal PBM
Molecule type: double-stranded DNA, one strand shown
Sample: in vitro
Concentration: not given
Setting: 8-mer, flanks averaged, mean of replicates
Direction: higher = stronger binding
Oligonucleotide	E-score
CTCTCTTA	0.0544
CCATGCCG	-0.161
AAACTACC	0.162
ACCTACAT	0.153
AATCGGTG	-0.00466
GCACGGTA	-0.115
ATAGTGGC	0.0242
ATCGCCGG	-0.28
AGAGAAGC	-0.171
CACGGTGG	-0.321

Sample 2
Target: ABI1, truncated, D143A, DHFR fusion (Arabidopsis thaliana)
Method: DHFR PCA, deep sequencing
Sample: yeast
Setting: methotrexate growth selection, single substitutions
Together with: (+)-ABA 710 µM
Relative to: wild-type fitted maximum
Direction: higher = stronger binding
Parent: PYL1, truncated, DHFR fusion (Arabidopsis thaliana); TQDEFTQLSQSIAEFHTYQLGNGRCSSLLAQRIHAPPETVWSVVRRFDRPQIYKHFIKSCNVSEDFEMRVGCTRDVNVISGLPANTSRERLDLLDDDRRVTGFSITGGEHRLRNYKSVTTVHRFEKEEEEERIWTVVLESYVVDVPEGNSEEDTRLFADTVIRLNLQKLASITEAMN; partner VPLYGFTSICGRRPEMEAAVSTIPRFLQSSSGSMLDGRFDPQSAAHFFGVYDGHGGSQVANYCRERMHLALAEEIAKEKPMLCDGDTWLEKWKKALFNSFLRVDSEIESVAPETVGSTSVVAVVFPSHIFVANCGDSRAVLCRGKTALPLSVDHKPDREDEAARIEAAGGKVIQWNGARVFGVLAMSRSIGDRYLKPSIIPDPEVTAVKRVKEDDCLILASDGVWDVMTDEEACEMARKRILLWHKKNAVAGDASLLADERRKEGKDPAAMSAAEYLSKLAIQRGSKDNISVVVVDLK
Variant	relative binding score
K168G	99.6%
D159T	76%
K116H	100%
T160C	99.9%
S150Y	76%
D97Y	95.1%
S150H	84.8%
F47G	-2.72%
V121Y	-24.7%

Sample 3
Target: CCNB2, cyclin fold, Cln2 fusion (human)
Method: yeast growth competition, sequencing
Sample: yeast
Setting: weak parent motif
Relative to: not given
Direction: higher = stronger binding
Parent: CDC25A docking peptide (human); PPHRRRLLFACSP; partner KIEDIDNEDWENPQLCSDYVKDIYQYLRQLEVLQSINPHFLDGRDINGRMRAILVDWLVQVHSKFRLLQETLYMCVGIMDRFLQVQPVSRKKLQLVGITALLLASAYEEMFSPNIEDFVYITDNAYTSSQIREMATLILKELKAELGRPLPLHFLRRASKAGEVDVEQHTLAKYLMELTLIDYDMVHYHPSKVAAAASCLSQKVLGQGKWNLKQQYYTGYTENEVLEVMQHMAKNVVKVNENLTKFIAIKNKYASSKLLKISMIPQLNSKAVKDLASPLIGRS
Variant	normalised enrichment score
PPHRRRLLFACVP [S12V]	0.746
PPHRIRLLFACSP [R5I]	0.734
PPHRKRLLLACSP [R5K F9L]	0.57
PPHRRRLMFACSP [L8M]	0.41
PPHRRRPLFACSP [L7P]	0.167
NPHRRRLLFACSP [P1N]	0.532
PPHRTRLLFACSP [R5T]	0.207
PPHRRRLLFACLP [S12L]	0.684
PPHRRRLLEACSP [F9E]	0.287
PPHRRRLLFAPSP [C11P]	0.69
PPHRRTLLFACSP [R6T]	0.443
PPHIRRLLFACSP [R4I]	1.12
PPHRRRLLFAMSP [C11M]	0.294
PPSRRRLLFACSP [H3S]	0.99
PPWRRRLLFACSP [H3W]	1.26

Other studies, line by line
Substance	target	test	test system	conditions	how to read	endpoint	result
PhoQ, residues 284 288 289 292 302 303 HSYLQF	PhoP, residues 12 14 15 18 19 QWHVF (Escherichia coli, UniProt P23836)	Sort-seq, item: YFP reporter	E. coli	PhoQ-PhoP variant library, together with: 10 µM Mg2+	relative to: high Mg2+ state, higher = stronger signaling	fold induction	3.91
